Results gathered from unrelated publications.
Compare with care: the assays were run in different laboratories. ± gives the spread as reported.

| Compound | test | test system | conditions | how to read | measurement | result |
| --- | --- | --- | --- | --- | --- | --- |
| Cn1cncn1.[Ru+2].c1cc(-c2ccc3ccccc3n2)nc(-c2ccc3ccccc3n2)c1.c1ccc2cc3nc4c5cccnc5c5ncccc5c4nc3cc2c1 |  | acetonitrile | concentration not given, irradiation 500 nm |  | ligand exchange quantum yield | 0.025 |
| COc1cc(NC(C)=O)c2c(c1O)-c1c(OC)c(OC)cc3c1C(C2)N(C)CC3 (stereo not shown) |  | rat lung homogenate | 100 µg/mL, 40 d, -20 °C, long-term storage |  | remaining compound | 90.2 ± 4.1% |
| C[C@H]1CO[C@@H]2Cn3cc(C(=O)NCc4ccc(F)cc4F)c(=O)c(O[C@@H]4O[C@H](C(=O)O)[C@@H](O)[C@H](O)[C@H]4O)c3C(=O)N12 | LC-MS/MS | human, UGT1A9 wild-type, plasma | oral, 30 mg, 1 weeks after last oral dose |  | plasma concentration | 28.1 ± 66.6 ng/mL |
| COc1cc2c(cc1OC)CN(CCCCn1ccc3cc(OCC[18F])ccc31)C2 |  | male ICR mice | intravenous, 280 kBq, 15 min post-injection |  | blood uptake | 1.19 ± 0.09 %ID/g |
| CCCC[C@H](NC(=O)CNC(=O)CNC(=O)CN1CCN(CC(=O)O)CCN(CC(=O)O)CC1)C(=O)N[C@H]1CC(=O)NCCCC[C@@H](C(N)=O)NC(=O)[C@H](Cc2c[nH]c3ccccc23)NC(=O)[C@H](CCCNC(=N)N)NC(=O)[C@@H](Cc2ccccc2)NC(=O)[C@H](Cc2c[nH]cn2)NC1=O [copper-64 labelled] |  | female C57 mouse, B16/F1 melanoma | intravenous, 0.037 MBq, 2 h | baseline: tumour over lung | uptake ratio | 22.1 |
| O=C([O-])c1cccc(CN(CCN(Cc2cn(Cc3ccccc3)nn2)Cc2cccc(C(=O)[O-])n2)Cc2cn(Cc3ccccc3)nn2)n1.[64Cu+2] |  | human serum | 20 h, 37 °C, with: 64Cu |  | radiometal bound to chelator | 98.3% |
| CCC/C(=C\C1=C(OC)C(=O)c2ccccc2C1=O)C(=O)NOC | metabolic stability | mouse, liver microsomes | 1 µM, pH 7.4 |  | scaled CLint | 23.4 mL/min/kg |
| OCc1cn(Cc2ccc(-c3noc(-c4ccc(OCC[18F])c(C(F)(F)F)c4)n3)cc2)nn1 |  | rat, pancreas | intravenous, 2 h |  | tracer uptake | 1.45 %ID/g |
| C[N+]1(CC(=O)OC2CCCCCCCCCCC2)CCCCC1 |  | mouse, plasma | intraperitoneal, 5 mg/kg, single dose |  | Cmax | 0.6 µg/mL |
| CCc1nc(N)nc(N)c1C#CC(C)c1cc(-c2cc(C)nc(C)c2)ccc1Cl (stereo not shown) |  | human hepatocytes, pooled | 1 µM |  | scaled intrinsic clearance | ~19 mL/min/kg |
| Cc1ccc(CNC(=O)Cc2ccc(-c3ccc(OCCN4CCOCC4)cc3)cn2)cc1 |  | ICR mouse | oral, 10 mg/kg |  | half-life | 327 ± 88.8 min |
| C[C@@H](C(=O)O)N(CC(=O)N(CCS)CC(N)=O)C(=O)CN(C(=O)CN(C(=O)CN(C(=O)CN(C(=O)CN(C(=O)CN(C(=O)CN(C(=O)CN(C(=O)CN(C(=O)CN(C(=O)CN(C(=O)CN(CCS)C(=O)CN1CCCNCC1)[C@@H](C)c1ccccc1)[C@@H](C)C(=O)O)[C@@H](C)C(=O)O)[C@@H](C)c1ccccc1)[C@@H](C)C(=O)O)[C@@H](C)C(=O)O)[C@@H](C)c1ccccc1)[C@@H](C)C(=O)O)[C@@H](C)C(=O)O)[C@@H](C)c1ccccc1)[C@@H](C)C(=O)O |  | distilled water |  |  | water solubility | ≥ 15 mM |
| C[C@@H]1Cc2c([nH]c3ccccc23)[C@@H](c2c(F)cc(/C=C/C(=O)O)cc2F)N1C12CC(C1)C2 |  | Balb/c nude mouse, MCF7 xenograft, tumour | oral, 5 mg/kg, steady state |  | AUC(0-t) | 8300 ng·h/mL |
| N=C(N)NCCC[C@@H]1NC(=O)[C@H](Cc2c[nH]c3ccccc23)NC(=O)[C@@H](CC2CCCCC2)NC(=O)[C@@H]2CCCN2C(=O)[C@@H](NC(=O)CCc2ccccc2)CCCNC1=O |  | C57BL/6J mice, brain | intraperitoneal, 1 mg/kg, two-compartment model |  | apparent peripheral volume (V2/F) | 0.19 µg/(ng/g) |
| NC[C@@H](C(=O)Nc1ccc(-c2cn[nH]c2)cc1)c1ccccc1 | OECD 405 eye irritation | New Zealand White rabbit, eye | topical, 0.1%, 25 h (day 2) | direction not given | total eye irritation score | 1 |
| CCC(=O)N(C)c1ccc(Cl)c(Cl)c1 |  | mouse, brain | subcutaneous, 40 mg/kg, 1 h |  | concentration | 2000 nM |
